Published values collected from several papers.
Each numbered part is a random draw from the data of one study; scales do not carry over between parts. Substitutions count along the parent as printed.

Sample 1
Target: Interferon regulatory factor 7, full length, phosphomimetic (IRF7, Homo sapiens, UniProt Q92985, residues 1-503, S471D/S472D/S475D/S476D/S477D/S483D/S484D/S487D)
Method: protein-binding microarray
Molecule type: double-stranded DNA, one strand shown
Sample: in vitro
Concentration: 2200 nM top
Notes: 60-bp whole probe
Together with: salmon DNA 0.4 mg/ml
Baseline: random background probes
Reading: higher = stronger binding
Quantity: fitted relative affinity
All sequences stand within: GCCTAGCAC … GTCTTGATTCGCTTGACGCTGCTG
Construct (chain): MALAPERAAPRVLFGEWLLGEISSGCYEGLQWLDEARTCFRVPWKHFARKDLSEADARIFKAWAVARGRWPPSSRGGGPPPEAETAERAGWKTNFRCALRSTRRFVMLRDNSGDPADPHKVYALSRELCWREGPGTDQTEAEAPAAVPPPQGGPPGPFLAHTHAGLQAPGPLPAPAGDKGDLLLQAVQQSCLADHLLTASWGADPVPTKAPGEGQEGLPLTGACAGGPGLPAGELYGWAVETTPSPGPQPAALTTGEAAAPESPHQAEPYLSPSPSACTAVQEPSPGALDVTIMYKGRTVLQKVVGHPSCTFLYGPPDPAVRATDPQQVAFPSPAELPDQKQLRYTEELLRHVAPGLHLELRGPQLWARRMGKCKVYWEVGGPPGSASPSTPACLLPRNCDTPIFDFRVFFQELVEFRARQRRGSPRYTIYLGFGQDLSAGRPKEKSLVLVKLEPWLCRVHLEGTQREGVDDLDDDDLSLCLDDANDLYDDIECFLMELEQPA
Sequence = GGGAGCTATTAATTATTTTGGTGCTAG; value = -0.337 z-score
Sequence = TTAGGTATCGACACTGTGTTAGTGCTA; value = 0.257 z-score
Sequence = GACGGTTTCCCTCTCCTGACGTGCTAG; value = 2.73 z-score
Sequence = GACGGTATCGGACTGGGGACGTGCTAG; value = -0.281 z-score
Sequence = TTAGGACTTGACACTGGGTTAGTGCTA; value = -0.359 z-score
Sequence = TTTGAACTGGGGTATCGATTAGTGCTA; value = 0.28 z-score
Sequence = GATGATCTCAGTTTCGAGACGTGCTAG; value = 3.76 z-score

Sample 2
Target: Histone acetyltransferase KAT6A, winged helix 2, GST fusion (KAT6A, Homo sapiens, UniProt Q92794, residues 85-181)
Method: protein binding microarray
Molecule type: double-stranded DNA, one strand shown
Sample: in vitro
Concentration: not given
Notes: 8-mer, flanks averaged, mean of 2 arrays, mostly near background
Baseline: not given
Reading: higher = stronger binding
Quantity: E-score
Residues (chain): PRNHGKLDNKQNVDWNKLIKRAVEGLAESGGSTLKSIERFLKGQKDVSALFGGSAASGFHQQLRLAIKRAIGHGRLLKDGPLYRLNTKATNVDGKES
Sequence = GCTACGAC; value = -0.0106
Sequence = ACCCTGAG; value = -0.102
Sequence = CGCTATAA; value = -0.0983
Sequence = AAGGTATC; value = 0.0391
Sequence = AGACGCAA; value = 0.0813
Sequence = AGCCAAAA; value = 0.136
Sequence = CCGTTACG; value = -0.104

Sample 3
Target: CCND2, cyclin fold, Cln2 fusion (human)
Method: yeast growth competition, sequencing
Sample: yeast
Notes: strong parent motif
Baseline: not given
Reading: higher = stronger binding
Quantity: normalised enrichment score
Starting sequence: E2F1 docking peptide (human); PPVKRRLDFETDH; partner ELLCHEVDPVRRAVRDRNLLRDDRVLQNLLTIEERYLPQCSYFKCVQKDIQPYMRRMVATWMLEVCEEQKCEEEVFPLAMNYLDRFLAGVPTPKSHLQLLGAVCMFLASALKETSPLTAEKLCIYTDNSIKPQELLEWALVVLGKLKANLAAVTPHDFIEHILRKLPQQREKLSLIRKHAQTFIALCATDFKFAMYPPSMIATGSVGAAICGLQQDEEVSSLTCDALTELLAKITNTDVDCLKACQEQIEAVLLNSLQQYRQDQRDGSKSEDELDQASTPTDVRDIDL
Change = R5W; value = 0.312
Change = V3P; value = 0.64
Change = K4H; value = 0.699
Change = K4F; value = 0.507
Change = D12Q; value = 1.87

Further values, each from its own experiment
Molecule = PhoQ, residues 284 288 289 292 302 303 AQGLTV; target = PhoP, residues 12 14 15 18 19 TTLRV (Escherichia coli, UniProt P23836); test = Sort-seq, refers to: YFP reporter; system = E. coli; setting = PhoQ-PhoP variant library, together with: 10 µM Mg2+; how to read = baseline: high Mg2+ state, higher = stronger signaling; quantity = fold induction; value = 8.67

Repeated from above (sample 1):
Sequence = GATGATCTCAGTTTCGAGACGTGCTAG; value = 3.76 z-score
Sequence = TTAGGACTTGACACTGGGTTAGTGCTA; value = -0.359 z-score
Sequence = TTTGAACTGGGGTATCGATTAGTGCTA; value = 0.28 z-score
